Assay results pooled from the literature.
Numbered parts are unrelated; each lists some results of a single study.

Sample 1 — technique: universal PBM; form: double-stranded DNA, one strand shown; matrix: in vitro; tested at: not given; direction: higher = stronger binding
Target: Sal-like protein 4, full length isoform B (SALL4, Homo sapiens, UniProt Q9UJQ4-2, residues 1-616)
Setting: 8-mer, flanks averaged, mean of replicates
Sequence | E-score
AGAGAGAC | -0.154
GGCTAATA | 0.171
AAGGTGCG | -0.202
CCGCTGCC | -0.234
TAATACCA | 0.236
GAAATTTC | -0.0587
GTATGCCA | -0.161
GAACCGCC | -0.245
CATCACAG | -0.0979
GAGGTGGA | -0.199

Sample 2 — technique: protein-binding microarray; form: double-stranded DNA, one strand shown; matrix: in vitro; tested at: 250 nM; setting: 60-bp whole probe; with: salmon DNA 0.4 mg/ml; relative to: random background probes; direction: higher = stronger binding; shared flanks, not repeated: GCCTAGCAC … GTCTTGATTCGCTTGACGCTGCTG
Target: Interferon regulatory factor 7, full length, phosphomimetic (IRF7, Homo sapiens, UniProt Q92985, residues 1-503, S101K/S471D/S472D/S475D/S476D/S477D/S483D/S484D/S487D)
Target sequence (chain): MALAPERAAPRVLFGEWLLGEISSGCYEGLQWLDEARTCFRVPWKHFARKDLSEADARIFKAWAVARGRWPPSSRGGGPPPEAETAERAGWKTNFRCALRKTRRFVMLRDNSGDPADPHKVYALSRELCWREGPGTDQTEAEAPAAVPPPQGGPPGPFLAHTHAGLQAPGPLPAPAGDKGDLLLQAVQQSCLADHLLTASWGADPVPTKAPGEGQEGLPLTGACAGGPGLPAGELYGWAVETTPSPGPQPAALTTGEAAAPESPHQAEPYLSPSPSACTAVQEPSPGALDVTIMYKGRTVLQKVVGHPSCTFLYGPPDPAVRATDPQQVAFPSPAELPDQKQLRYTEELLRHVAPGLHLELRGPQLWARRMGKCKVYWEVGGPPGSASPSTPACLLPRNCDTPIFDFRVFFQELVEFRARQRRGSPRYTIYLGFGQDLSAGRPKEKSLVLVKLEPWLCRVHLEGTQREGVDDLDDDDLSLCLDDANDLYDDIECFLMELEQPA
Sequence | log fluorescence
GACGTTATCGGACTGGGGACGTGCTAG | -0.0834 z-score
GACGAACTGGGATTTCGAGACGTGCTA | -0.287 z-score
TTAGGTTCCATTTTCCTTTAGTGCTAG | 4.24 z-score
TCACCTCTCACCTCGGCACTGTGCTAG | 0.11 z-score
TCATCTGTCCGTGCTCAGACTGTGCTA | 0.536 z-score
CCTCACTTCCTTCTGCCTGTGTGCTAG | 0.413 z-score
GACGGTCTAGGTATCGGGACGTGCTAG | -0.0868 z-score
GACGGACTTGGACTGGGGACGTGCTAG | -0.497 z-score
TTAGGAGTGGGTCTCGGTTAGTGCTAG | 0.466 z-score
TTAGAACAGAGTCTCGATTAGTGCTAG | 1.21 z-score

Sample 3 — technique: RNA Bind-n-Seq; form: RNA; matrix: in vitro; tested at: 200 nM; setting: whole 134-nt RNA, ends assumed; with: 150 mM LiCl; relative to: input library; direction: higher = stronger binding; each molecule: 7-deaza-guanosine replaces G
Target: Ras GTPase-activating protein-binding protein 1, full length (G3BP1, Homo sapiens, UniProt Q13283)
UniProt Q13283, sequence (whole entry, looked up): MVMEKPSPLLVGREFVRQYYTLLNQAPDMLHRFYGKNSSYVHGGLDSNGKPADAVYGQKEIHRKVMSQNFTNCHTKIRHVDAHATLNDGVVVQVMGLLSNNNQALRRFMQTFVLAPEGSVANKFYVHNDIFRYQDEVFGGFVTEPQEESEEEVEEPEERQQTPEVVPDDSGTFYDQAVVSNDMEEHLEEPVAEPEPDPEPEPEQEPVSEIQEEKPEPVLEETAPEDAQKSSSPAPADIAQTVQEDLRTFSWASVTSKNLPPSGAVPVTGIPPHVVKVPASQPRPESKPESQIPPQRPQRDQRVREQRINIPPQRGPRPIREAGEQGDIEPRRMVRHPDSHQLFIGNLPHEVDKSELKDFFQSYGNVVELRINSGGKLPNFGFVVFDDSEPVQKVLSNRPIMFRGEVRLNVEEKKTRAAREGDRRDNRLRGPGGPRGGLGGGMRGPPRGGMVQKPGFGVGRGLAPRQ
Shared flanks, not repeated: GGGAGUUCUACAGUCCGACGAUC … UGGAAUUCUCGGGUGUCAAGG
Sequence | log2 enrichment
UGGCCCUGGUGGCAUGCGGGGAGGAAGAAGUGGCCUCAUGGAUCGUGGUGGUCCCGGUGGAAUGUUCAGAGGUGGCCGUGGUGGAGACAG | 0.206
AAGUCCUGUGCUACACAUCGUAUGUACCGAAUCGGGGAAAGGGAAAGGGGAAAGGGGAAAGUAUUAUGUUACGCCGUUCGGAUCUGCACU | 0.696
UAGUGAUGAAAAAUUUCUCCCUUCUAGGUUUCCCUUGGGGGCUUUGAAAUAACACCACCAGUGGUCUUAAGGUUGAAGUGUGGUUCAGGG | -1.35
AAGUCCUGUGCUACACAUCGUAUGUACCGAAUCGGGAAAAAGGGUUUGGGAAAGGGAAAGUAUUAUGUUACGCCGUUCGGAUCUGCACUU | -1.2
UAACUUUAGAGGAGGAUCUGAUGGAUAUGGCAGUGGACGUGGAUUUGGGGAUGGCUCUAAUGGGUAUGGAGGAGGACCUGGAGGUGGCAA | -0.425
GCAGGAAGUAAAAACAAAUGGAAAUGCUUCGGAUAGUGGCAGGGGUGGAAAUUGCUAAGGAAAGGGUGGGAUGGGAGUGGGUAAAGAGUU | 0.299
AGUCCUGUGCUACACAUCGUAUGUACCGAAUCGGUUUUUUUGGUUUUUUUGGAAAGGAAAGUAUUAUGUUACGCCGUUCGGAUCUGCACU | -1.31
GUCCUGUGCUACACAUCGUAUGUACCGAAUCGGGUUUUUUUGGGAAAAAGGGUUUGGGAAAGUAUUAUGUUACGCCGUUCGGAUCUGCAC | -2.68
UGUGCUACACAUCGUAUGUACCGAAUCGGGGAAAAAAAGGGAAAAAAAGGGAAAAAAAGGGGAAAGUAUUAUGUUACGCCGUUCGGAUCU | 0.351

Single results of other studies
Substance | target | test | test system | conditions | scale | quantity | value
PhoQ, residues 284 288 289 292 302 303 NSMLDC | PhoP, residues 12 14 15 18 19 TPWLV (Escherichia coli, UniProt P23836) | Sort-seq, refers to: YFP reporter | E. coli | PhoQ-PhoP variant library, with: 10 µM Mg2+ | relative to: high Mg2+ state, higher = stronger signaling | fold induction | 13.5

A few entries again (sample 2):
Sequence | log fluorescence
GACGTTATCGGACTGGGGACGTGCTAG | -0.0834 z-score
GACGAACTGGGATTTCGAGACGTGCTA | -0.287 z-score
TTAGGTTCCATTTTCCTTTAGTGCTAG | 4.24 z-score
TCACCTCTCACCTCGGCACTGTGCTAG | 0.11 z-score
TCATCTGTCCGTGCTCAGACTGTGCTA | 0.536 z-score
